Results gathered from unrelated publications.
Protocols differ between the studies behind these lines. Values joined by “and” are separate records of one study, mostly repeats; a detail may differ. ± gives the spread as reported.
B1: anillin; sequence looked up; chain MDPFTEKLLERTRARRENLQRKMAERPTAAPRSMTHAKRARQPLSEASNQQPLSGGEEKSCTKPSPSKKRCSDNTEVEVSNLENKQPVESTSAKSCSPSPVSPQVQPQAADTISDSVAVPASLLGMRRGLNSRLEATAASSVKTRMQKLAEQRRRWDNDDMTDDIPESSLFSPMPSEEKAASPPRPLLSNASATPVGRRGRLANLAATICSWEDDVNHSFAKQNSVQEQPGTACLSKFSSASGASARINSSSVKQEATFCSQRDGDASLNKALSSSADDASLVNASISSSVKATSPVKSTTSITDAKSCEGQNPELLPKTPISPLKTGVSKPIVKSTLSQTVPSKGELSREICLQSQSKDKSTTPGGTGIKPFLERFGERCQEHSKESPARSTPHRTPIITPNTKAIQERLFKQDTSSSTTHLAQQLKQERQKELACLRGRFDKGNIWSAEKGGNSKSKQLETKQETHCQSTPLKKHQGVSKTQSLPVTEKVTENQIPAKNSSTEPKGFTECEMTKSSPLKITLFLEEDKSLKVTSDPKVEQKIEVIREIEMSVDDDDINSSKVINDLFSDVLEEGELDMEKSQEEMDQALAESSEEQEDALNISSMSLLAPLAQTVGVVSPESLVSTPRLELKDTSRSDESPKPGKFQRTRVPRAESGDSLGSEDRDLLYSIDAYRSQRFKETERPSIKQVIVRKEDVTSKLDEKNNAFPCQVNIKQKMQELNNEINMQQTVIYQASQALNCCVDEEHGKGSLEEAEAERLLLIATGKRTLLIDELNKLKNEGPQRKNKASPQSEFMPSKGSVTLSEIRLPLKADFVCSTVQKPDAANYYYLIILKAGAENMVATPLASTSNSLNGDALTFTTTFTLQDVSNDFEINIEVYSLVQKKDPSGLDKKKKTSKSKAITPKRLLTSITTKSNIHSSVMASPGGLSAVRTSNFALVGSYTLSLSSVGNTKFVLDKVPFLSSLEGHIYLKIKCQVNSSVEERGFLTIFEDVSGFGAWHRRWCVLSGNCISYWTYPDDEKRKNPIGRINLANCTSRQIEPANREFCARRNTFELITVRPQREDDRETLVSQCRDTLCVTKNWLSADTKEERDLWMQKLNQVLVDIRLWQPDACYKPIGKP
B2: DDX46; sequence looked up; chain GRESRHYRKRSASRGRSGSRSRSRSPSDKRSKRGDDRRSRSRDRDRRRERSRSRDKRRSRSRDRKRLRRSRSRERDRSRERRRSRSRDRRRSRSRSRGRRSRSSSPGNKSKKTENRSRSKEKTDGGESSKEKKKDKDDKEDEKEKDAGNFDQNKLEEEMRKRKERVEKWREEQRKKAMENIGELKKEIEEMKQGKKWSLEDDDDDEDDPAEAEKEGNEMEGEELDPLDAYMEEVKEEVKKFNMRSVKGGGGNEKKSGPTVTKVVTVVTTKKAVVDSDKKKGELMENDQDAMEYSSEEEEVDLQTALTGYQTKQRKLLEPVDHGKIEYEPFRKNFYVEVPELAKMSQEEVNVFRLEMEGITVKGKGCPKPIKSWVQCGISMKILNSLKKHGYEKPTPIQTQAIPAIMSGRDLIGIAKTGSGKTIAFLLPMFRHIMDQRSLEEGEGPIAVIMTPTRELALQITKECKKFSKTLGLRVVCVYGGTGISEQIAELKRGAEIIVCTPGRMIDMLAANSGRVTNLRRVTYVVLDEADRMFDMGFEPQVMRIVDNVRPDRQTVMFSATFPRAMEALARRILSKPIEVQVGGRSVVCSDVEQQVIVIEEEKKFLKLLELLGHYQESGSVIIFVDKQEHADGLLKDLMRASYPCMSLHGGIDQYDRDSIINDFKNGTCKLLVATSVAARGLDVKHLILVVNYSCPNHYEDYVHRAGRTGRAGNKGYAYTFITEDQARYAGDIIKALELSGTAVPPDLEKLWSDFKDQQKAEGKIIKKSSGFSGKGFKFDETEQALANERKKLQKAALGLQDSDDEDAAVDIDEQIESMFNSKKRVKDMAAPGTSSVPAPTAGNAEKLEIAKRLALRINAQKNLGIESQDVMQQATNAILRGGTILAPTVSAKTIAEQLAEKINAKLNYVPLEKQEEERQDGGQNESFKRYEEELEINDFPQTARWKVTSKEALQRISEYSEAAITIRGTYFPPGKEPKEGERKIYLAIESANELAVQKAKAEITRLIKEELIRLQNSYQPTNKGRYKVL
B3: CSK; sequence looked up; chain SAIQAAWPSGTECIAKYNFHGTAEQDLPFCKGDVLTIVAVTKDPNWYKAKNKVGREGIIPANYVQKREGVKAGTKLSLMPWFHGKITREQAERLLYPPETGLFLVRESTNYPGDYTLCVSCDGKVEHYRIMYHASKLSIDEEVYFENLMQLVEHYTSDADGLCTRLIKPKVMEGTVAAQDEFYRSGWALNMKELKLLQTIGKGEFGDVMLGDYRGNKVAVKCIKNDATAQAFLAEASVMTQLRHSNLVQLLGVIVEEKGGLYIVTEYMAKGSLVDYLRSRGRSVLGGDCLLKFSLDVCEAMEYLEGNNFVHRDLAARNVLVSEDNVAKVSDFGLTKEASSTQDTGKLPVKWTAPEALREKKFSTKSDVWSFGILLWEIYSFGRVPYPRIPLKDVVPRVEKGYKMDAPDGCPPAVYEVMKNCWHLDAAMRPSFLQLREQLEHIKTHELHL
B4: ARF4; sequence looked up; chain GLTISSLFSRLFGKKQMRILMVGLDAAGKTTILYKLKLGEIVTTIPTIGFNVETVEYKNICFTVWDVGGQDRIRPLWKHYFQNTQGLIFVVDSNDRERIQEVADELQKMLLVDELRDAVLLLFANKQDLPNAMAISEMTDKLGLQSLRNRTWYVQATCATQGTGLYEGLDWLSNELSKR
B5: dermcidin; sequence looked up; chain YDPEAASAPGSGNPCHEASAAQKENAGEDPGLARQAPKPRKQRSSLLEKGLDGAKKAVGGLGKLGKDAVEDLESVGKGAVHDVKDVLDSVL

`VPKFHLPVE` gave an IC50 of greater than 20 µM (Mamu-A1*02601 MHC class I; peptide binding; peptide, Chinese rhesus macaque).
`TLHEYMLDV` has a specific lysis of 41.9% (Ca-Ski (HLA-A2+ HPV+); 111In release; peptide; concentration not given, 16 h, E:T 25:1 IVS 5, with: peptide-generated T-cell line).
`GFGDLKSPAGLQVLNDYLADK (EEF1B2)` — result for “log2 fold change”: 1.47 (peptide binding, SILAC pull-down; concentration not given; reference: non-acetylated over acetylated NIT1 peptide).
`oseltamivir carboxylate` has an EC50 of 4 µM (Influenza B virus; viral replication, visual CPE score; MDCK).
`insulin human` gave a fold change of 0.916 (item: GRIA3 mRNA; uninfected mouse, brain; i.p., dose not given; reference: PBS).
`GWTLNSAGYLLGPHAVDNHRSFNDKHGFT-NH2 (C-amide)` gave a mRNA level of 0.122 and 0.0758 and 0.0808 and 0.153 and 0.113 and 0.105 and 0.0876 (RT-qPCR, item: Tgfb1; peptide, chicken, DSS-induced colitis, ileum; ip, 50 µM, unit not given; reference: Actb).
`B1 (anillin)` — result for “log2 fold change”: 0.0928 (peptide binding, SILAC pull-down; concentration not given; reference: non-acetylated over acetylated NIT1 peptide).
`polymyxin B`: “leakage time constant” 82 ± 38 min (calcein leakage; DOPC/DOPG/CHOL liposomes; concentration not given, with: 40 mM CaCl2).
`KISEYRHYC` gave an IFN-γ release of 455 pg/mL (HPV16 E6-specific T-cell line; ELISA; peptide, supernatant; concentration not given, 24 h, with: peptide-pulsed autologous B cells).
For `mitragynine`, the Vmax was 0.087 nmol/min/mg protein (substrate; human liver S9; 10 min, 1).
`cisplatin` has an IC50 of 20 ± 2 µM (A549).
`hexaarginine` gave a koff of 3330 ± 340 s⁻¹ (PorA peptide pore; peptide binding, planar bilayer single-channel recording; 0.5 µM, pH 7.4, +20 mV, trans side, 150 mM KCl).
Under “log2 fold change”, `PTVEELYR (API5)` is recorded as 0.271 (peptide binding, SILAC pull-down; concentration not given; reference: non-acetylated over acetylated NIT1 peptide).
With `TNPYPTGPG` the IC50 was greater than 20 µM (Mamu-B*08301 MHC class I; peptide binding; peptide, Chinese rhesus macaque).
The specific lysis of `QQYNKPLCDL` is reported as 0.6% (ASPC1 (HLA-A2− HPV−); 111In release; peptide; concentration not given, 16 h, E:T 25:1, IVS 5, with: peptide-generated T-cell line).
`GWTLNSAGYLLGPRRIDHLLMIKEMPIARGREEAPGA / YAVDNHRSFNDKHGFT-NH2 (C-amide)` has a mRNA level of 0.775 and 0.784 and 0.87 and 0.415 and 0.268 (RT-qPCR, item: Ccl3; mouse, DSS-induced colitis, colon; ip, 3 µM, 3% DSS, unit not given; reference: Gapdh).
With `QLYNKPLCDV` the IFN-γ release was 653 pg/mL (HPV16 E6-specific T-cell line; ELISA; peptide, supernatant; concentration not given, 24 h, with: peptide-pulsed autologous B cells).
The EC50 of `oseltamivir carboxylate` is reported as 0.2 µM (Influenza A virus H1N1; cytopathic effect, MTS; MDCK).
`(−)-antroquinonol A` has an IC50 of greater than 25 µM (LNCaP; cytotoxicity, MTS; 72 h).
For `AVHVASGFI`, the IC50 was greater than 20 µM (Mamu-A1*02601 MHC class I; peptide binding; peptide, Chinese rhesus macaque).
Under “log2 fold change”, `AHNAK protein` is recorded as 0.447 (peptide binding, SILAC pull-down; concentration not given; reference: non-acetylated over acetylated NIT1 peptide).
Under “peak cytosolic Ca2+”, `SFLLRNPNDKYEPF` is recorded as 931 ± 74 nM (BPAEC; fura-2; peptide; 100 µM).
For `B2 (DDX46)`, “log2 fold change” read 0.115 (peptide binding, SILAC pull-down; concentration not given; reference: non-acetylated over acetylated NIT1 peptide).
`colistin`: “radial growth ratio” 0.875 and 0.897 and 0.947 (Aspergillus fumigatus; pkcA G579R, solid minimal medium; 50 µM, 4 days, 37 °C; reference: untreated).
`B3 (CSK)`: “log2 fold change” -0.669 (peptide binding, SILAC pull-down; concentration not given; reference: non-acetylated over acetylated NIT1 peptide).
The root length of `aspterric acid` is reported as 0.01 cm (Arabidopsis thaliana Col-0 seeds; 100 µg/mL, seed germination).
For `B4 (ARF4)`, “log2 fold change” read 3.01 (peptide binding, SILAC pull-down; concentration not given; reference: non-acetylated over acetylated NIT1 peptide).
`nonaarginine` gave a koff of 1430 ± 150 s⁻¹ (PorA peptide pore; peptide binding, planar bilayer single-channel recording; 0.5 µM, pH 7.4, +30 mV, trans side, 150 mM KCl).
`B5 (dermcidin)` — result for “log2 fold change”: -0.64 (peptide binding, SILAC pull-down; concentration not given; reference: non-acetylated over acetylated NIT1 peptide).
With `pertussis toxin` the phospho-PKC level was 13.5 MFI and 15.7 MFI and 23.5 MFI (immunostaining, item: p-PKC; humanized UT (+/h+) mice, SAH model, Macrophages, F4/80+, peri-MCA; dose not given).
